Experimental data pooled from the literature.
Lines come from different studies, so protocols differ. “And” joins repeats or separate records; there may be more than shown. ± gives the spread as reported.
Cell line: MDA-MB-231

O=C1N(Cc2cn(CC/C(=C(\c3ccccc3)c3ccc(OCCO)cc3)c3ccccc3)nn2)c2ccccc2C12OCCO2 — IC50 (cell growth or viability, MTT): > 100 µM
Cc1ccc(C(C)C)cc1.O=C(N=P(c1ccccc1)(c1ccccc1)c1ccccc1)c1ccccn1.[Cl-].[Cl-].[Ru+2] — IC50 (cell growth or viability, MTT; 24 h): 2.61 µM and 2.64 µM
CC(=O)[C@@H]1CCCN1C(=O)[C@@H]1CCCN1C(=O)[C@H](Cc1ccccc1)NC(=O)OC(C)(C)C — IC50 (cell growth or viability, SRB): 55 µM
CN(C)CCCO/N=C1/C=C2CCC3C(CC[C@]4(C)/C(=C/c5ccccn5)CCC34)[C@@]2(C)CC1 (some centres unmarked) — IC50 (cell growth or viability, MTT; 72 h): 44.6 µM
Cc1cc(C#N)cc(C)c1Oc1cc(Nc2ccc(C#N)cc2)nc2ccncc12 — IC50 (48 h): > 128 µM
COc1ccc([C@@H]2COc3cc(O)ccc3C2)c(OC)c1 — IC50 (cell growth or viability, MTT; 72 h): 33.5 µM
Cc1cc(C)c([N+]#[C][Pt-]([Cl])([Cl])=[C](Nc2ccc(CN[C](NC(C)(C)C)=[Au][Cl])cc2)Nc2c(C)cc(C)cc2C)c(C)c1 — IC50 (cell growth or viability): > 100 µM
CN[C@@H](C)C(=O)N[C@H]1CN(C(=O)Cc2ccccc2)CC[C@H]2CC[C@@H](C(=O)NCc3ccc(Br)cc3)N2C1=O — IC50 (cell growth or viability; 96 h): 0.046 µM
CCN(CC)c1ccc2c(c1)[O][Pd]([CH2]C#N)[N](c1ccccc1C)c1ncccc1N=C2 — IC50 (cell growth or viability, MTT; 48 h): 34.6 µM
CCn1cc[n+](CC)[c]1[Au-]([Cl])([Cl])[Cl] — IC50 (cell growth or viability, crystal violet; 96 h): 10.6 µM
Oc1cc2c3c(c1)COc1cc(O)cc(c1-3)CC2 — IC50 (cell growth or viability, MTT; 48 h): 48.6 µM
O=C(N=P12CN3CN(CN(C3)C1)C2)c1cccc[c]1[Au]([Cl])[Cl] — IC50 (cell growth or viability, MTT; 24 h): > 125 µM
C=C[CH2][Pd-]([Cl])[Cl].CC(C)c1cccc(C(C)C)c1-n1c[n+](-c2c(C(C)C)cccc2C(C)C)c2c1-c1cccc3cccc-2c13 — IC50 (cell growth or viability, MTT; 72 h): 4 µM
C=CCc1cc(OC)c(OC(C)=O)c(OC)c1 — IC50 (MTT; 24 h): > 50 µM
COc1ccc2c(c1)OCc1c-2oc2cc3c(cc12)OCO3 — IC50 (cell growth or viability, MTT; 72 h): 22.8 µM
O=C(CNc1nc(Cl)nc(NNC(=O)c2ccc(Nc3nc(Nc4ccc(C(=O)NNc5nc(Cl)nc(NCC(=O)NO)n5)cc4)nc(Nc4ccc(C(=O)NNc5nc(Cl)nc(NCC(=O)NO)n5)cc4)n3)cc2)n1)NO — IC50 (cell growth or viability, MTT; 72 h): 0.188 µM
Cc1cc(C)c([N+]#[C][Pd-]([Cl])([Cl])=[C](Nc2cccc(CN[C](NC(C)(C)C)=[Au][Cl])c2)Nc2c(C)cc(C)cc2C)c(C)c1 — IC50 (cell growth or viability): > 100 µM
CN[C@@H](C)C(=O)N[C@H]1CN(C(=O)Cc2ccccc2)CC[C@H]2CC[C@@H](C(=O)NCc3cccc(C(F)(F)F)c3)N2C1=O — IC50 (cell growth or viability; 96 h): 0.224 µM
COc1ccc(/N=N/C(=S)N2CCN(C)CC2)cc1 — IC50 (cell growth or viability, resazurin; 48 h): 49.2 µM
Cc1cc(C=O)cc(C)c1Oc1cc(Nc2ccc(C#N)cc2)nc2ccncc12 — IC50 (48 h): 89.9 ± 2.1 µM
CC(C)(C)OC(=O)N1CCN(CC(OCc2ccc3ccccc3c2)c2ccc(Cl)cc2Cl)CC1 (centres unmarked) — IC50 (cell growth or viability, MTT; 24 h): 20.9 µM
CC(C)c1cccc(C(C)C)c1[N+]#[C][Pd-]([Cl])([Cl])=[C](Nc1cccc(CN[C](NC(C)(C)C)=[Au][Cl])c1)Nc1c(C(C)C)cccc1C(C)C — IC50 (cell growth or viability): > 100 µM
C=CC(=C)CC[C@]1(C)[C@H](C)C[C@H](OC(=O)CCCCCCC)[C@@]23C(=C[C@H](OC(C)=O)C[C@@H]12)[C@@H](OC(C)=O)O[C@H]3OC(C)=O — IC50 (cell growth or viability, SRB): 4.93 µM
COc1ccc(/C=C/C(=O)/C=C/c2cn(-c3ccccc3)nc2C(=O)O)c(OC)c1 — IC50 (cell growth; 72 h): 19.9 ± 6.77 µM
Cc1ccc(S(=O)(=O)[O][Re-2]2(=[C]=O)(=[C]=O)(=[C]=O)[n+]3ccc(-c4ccccc4)c4ccc5c(-c6ccccc6)cc[n+]2c5c43)cc1 — IC50 (cell growth or viability, resazurin; 72 h): 1.27 µM
CN[C@@H](C)C(=O)N[C@H]1CN(C(=O)Cc2ccccc2)CC[C@H]2CC[C@@H](C(=O)NCc3ccc(Cl)cc3)N2C1=O — IC50 (cell growth or viability; 96 h): 0.021 µM
CO[C@H]1C(=O)c2ccc(O)cc2O[C@@H]1c1ccc(O)c(O)c1 (relative stereo) — IC50 (cell growth or viability, MTT; 72 h): 201 µM
C=C[CH2][Pd-]([Cl])[Cl].Cc1cc(C)c(-n2c[n+](-c3c(C)cc(C)cc3C)c3c2-c2cccc4cccc-3c24)c(C)c1 — IC50 (cell growth or viability, MTT; 72 h): 7 µM
C[C@@H]1CC[C@@H]([C@](O)(CNCc2ccc(F)cc2)COCc2ccccc2)[C@H](OCc2ccccc2)C1 — IC50 (cell growth or viability, MTT; 72 h): 15.4 µM
CC12CCC3c4ccc(OCCCOc5no[n+]([O-])c5S(=O)(=O)c5ccccc5)cc4CCC3C1CCC2=O (centres unmarked) — IC50 (cell growth or viability, MTT; 48 h): 0.019 µM
O=C(O)CNc1nc(NNC(=O)c2ccc(Nc3nc(Nc4ccc(C(=O)NNc5nc(NCC(=O)O)nc(N6CCOCC6)n5)cc4)nc(Nc4ccc(C(=O)NNc5nc(NCC(=O)O)nc(N6CCOCC6)n5)cc4)n3)cc2)nc(N2CCOCC2)n1 — IC50 (cell growth or viability, MTT; 72 h): 0.0837 µM
CCN(CC)c1ccc(CNC(=O)[C@@H]2CC[C@@H]3CCN(C(=O)Cc4ccccc4)C[C@H](NC(=O)[C@H](C)NC)C(=O)N32)cc1 — IC50 (cell growth or viability; 96 h): 0.675 µM
COc1ccc(CNC[C@@](O)(COCc2ccccc2)[C@@H]2CC[C@@H](C)C[C@H]2OCc2ccccc2)cc1 — IC50 (cell growth or viability, MTT; 72 h): 3.2 µM
CCCCCCCC(=O)Oc1c(C)c(OC)c2c(c1C)OC(=O)[C@@H](CCCCCC)[C@]2(O)/C=C/c1ccccc1 (racemic) — IC50 (cell growth or viability, SRB; 72 h): > 50 µM
C[C@]12CC/C(=N\O)C=C1CCC1C2CC[C@]2(C)/C(=C/c3ccccn3)CCC12 (some centres unmarked) — IC50 (cell growth or viability, MTT; 72 h): 47.3 µM
C[C@@H]1CC[C@@H]([C@@](O)(CNCc2ccc(F)cc2)COCc2ccc(F)cc2)[C@H](OCc2ccc(F)cc2)C1 — IC50 (cell growth or viability, MTT; 72 h): 1.9 µM
Nc1cccc[n+]1Cc1cccc(C[n+]2ccccc2N)c1 — IC50 (cell growth or viability, MTT; 24 h): 524 µM
CC12CCC3c4ccc(Oc5no[n+]([O-])c5S(=O)(=O)c5ccccc5)cc4CCC3C1CCC2O (centres unmarked) — IC50 (cell growth or viability, MTT; 48 h): 0.499 µM
Oc1ccccc1-c1nn(-c2ccccc2)[n+](-c2ccccc2)n1 — IC50 (cell growth or viability, resazurin; 72 h): 130 µM
C[C@@H]1CC[C@@H]([C@](O)(CNCc2cccc(F)c2)COCc2ccccc2)[C@H](OCc2ccccc2)C1 — IC50 (cell growth or viability, MTT; 72 h): 3.9 µM
COc1ccc2cc([C@H](C)C(=O)[O][Re-2]3(=[C]=O)(=[C]=O)(=[C]=O)[n+]4ccc(-c5ccccc5)c5ccc6c(-c7ccccc7)cc[n+]3c6c54)ccc2c1 — IC50 (cell growth or viability, resazurin; 72 h): 6.48 µM
Cc1cc(C)c(N[C](NCc2cccc(N[C](Nc3c(C(C)C)cccc3C(C)C)=[Pd-]([Cl])([Cl])[C]#[N+]c3c(C(C)C)cccc3C(C)C)c2)=[Au][Cl])c(C)c1 — IC50 (cell growth or viability): > 100 µM
CC12CCC3c4ccc(Oc5no[n+]([O-])c5S(=O)(=O)c5ccccc5)cc4CCC3C1CCC2=O (centres unmarked) — IC50 (cell growth or viability, MTT; 48 h): 0.423 µM
C#CCNC(=O)C(CC)C1CCC(C)C(C(C)C(O)C(C)C(=O)C(CC)C2OC3(C=CC(O)C4(CCC(C)(C5CCC(O)(CC)C(C)O5)O4)O3)C(C)CC2C)O1 (centres unmarked) — IC50 (cell growth or viability, MTT; 72 h): > 10 µM
Cn1ccn(N=Cc2ccccc2SSc2ccccc2C=Nn2ccn(C)c2=S)c1=S — IC50 (cell growth or viability, MTT; 72 h): 0.35 µM
CCCCCCCCCCCCCCCC(=O)Oc1ccc(CO)cc1OC(=O)CCCCCCCCCCCCCCC — IC50 (cell viability, MTT; 48 h, serum-free medium): inactive
CC/C(=C(\c1ccccc1)c1ccc(OCCN(C)CCCCC(=O)NCCc2c[nH]c3ccc(OC)cc23)cc1)c1ccccc1 — IC50 (cell survival, MTT; day 9, dosed days 2, 4, 7): 7.3 µM
CCc1c(C)c2ccc(OC(C)C)c(C)c2oc1=O — IC50 (cell growth or viability, MTT): > 50 µM
CCCCCCCCCCCCCCCOC(=O)/C=C/c1cccc(OC)c1 — IC50 (cell viability, MTT; 48 h, serum-free medium): inactive
CN[C@@H](C)C(=O)N[C@H]1CN(C(=O)Cc2ccccc2)CC[C@H]2CC[C@@H](C(=O)NCc3ccc(C(N)=O)cc3)N2C1=O — IC50 (cell growth or viability; 96 h): > 10 µM
COc1c(C)c(OS(=O)(=O)c2ccccc2)c(C)c(O)c1C(=O)/C=C/c1ccccc1 — IC50 (cell growth or viability, SRB; 72 h): 26.1 µM
COC(=O)C1CN1S(=O)(=O)c1ccc2c(C=O)c(N(C)C)ccc2c1 (centres unmarked) — IC50 (cell growth or viability, MTT; 48 h): 18 µM
CC(C)(C)N=[C](NCc1cccc(N)c1)[AuH][Cl] — IC50 (cell growth or viability): > 100 µM
CC(C)=CCC1=C(O)c2c(occ(-c3ccc(O)cc3)c2=O)C(CC=C(C)C)(CC=C(C)C)C1=O — IC50 (cell growth or viability, MTT; 24 h): 15.4 µM
CCOC(=O)c1ccc2c(c1)n(CC)[c]([Au-][Cl])[n+]2CC — IC50 (cell growth or viability, crystal violet; 96 h): 5.2 µM
COC(=O)[C@H](C(C)C)N(C)C(=O)[C@@H]1CCCN1C(=O)[C@H](C)N(C)C(=O)OC(C)(C)C — IC50 (cell growth or viability, SRB): 39 µM
Nc1ncnc2c1ncn2CCN1C(=O)/C(=N\N=C2/NC(=O)CS2)c2cc(F)ccc21 — IC50 (cell growth or viability, SRB; 72 h): 191 µM
O=[C]=[Re-2]1(=[C]=O)(=[C]=O)([O]S(=O)(=O)c2cccc3ccccc23)[n+]2ccc(-c3ccccc3)c3ccc4c(-c5ccccc5)cc[n+]1c4c32 — IC50 (cell growth or viability, resazurin; 72 h): 1.53 µM
Cc1ccc(/C=N/NC(=O)c2cc3cc(Nc4nccc(-c5cccnc5)n4)ccc3[nH]2)cc1 — IC50 (cell growth or viability, MTT; 48 h): 3.81 µM

Repeated from above:
Cn1ccn(N=Cc2ccccc2SSc2ccccc2C=Nn2ccn(C)c2=S)c1=S — IC50 (cell growth or viability, MTT; 72 h): 0.35 µM
CCCCCCCCCCCCCCCC(=O)Oc1ccc(CO)cc1OC(=O)CCCCCCCCCCCCCCC — IC50 (cell viability, MTT; 48 h, serum-free medium): inactive
CC/C(=C(\c1ccccc1)c1ccc(OCCN(C)CCCCC(=O)NCCc2c[nH]c3ccc(OC)cc23)cc1)c1ccccc1 — IC50 (cell survival, MTT; day 9, dosed days 2, 4, 7): 7.3 µM
CCc1c(C)c2ccc(OC(C)C)c(C)c2oc1=O — IC50 (cell growth or viability, MTT): > 50 µM
